Measured values collected from several papers.
A part holds a random share of what one study measured.
Chain of UniProt O60331 (whole entry, looked up): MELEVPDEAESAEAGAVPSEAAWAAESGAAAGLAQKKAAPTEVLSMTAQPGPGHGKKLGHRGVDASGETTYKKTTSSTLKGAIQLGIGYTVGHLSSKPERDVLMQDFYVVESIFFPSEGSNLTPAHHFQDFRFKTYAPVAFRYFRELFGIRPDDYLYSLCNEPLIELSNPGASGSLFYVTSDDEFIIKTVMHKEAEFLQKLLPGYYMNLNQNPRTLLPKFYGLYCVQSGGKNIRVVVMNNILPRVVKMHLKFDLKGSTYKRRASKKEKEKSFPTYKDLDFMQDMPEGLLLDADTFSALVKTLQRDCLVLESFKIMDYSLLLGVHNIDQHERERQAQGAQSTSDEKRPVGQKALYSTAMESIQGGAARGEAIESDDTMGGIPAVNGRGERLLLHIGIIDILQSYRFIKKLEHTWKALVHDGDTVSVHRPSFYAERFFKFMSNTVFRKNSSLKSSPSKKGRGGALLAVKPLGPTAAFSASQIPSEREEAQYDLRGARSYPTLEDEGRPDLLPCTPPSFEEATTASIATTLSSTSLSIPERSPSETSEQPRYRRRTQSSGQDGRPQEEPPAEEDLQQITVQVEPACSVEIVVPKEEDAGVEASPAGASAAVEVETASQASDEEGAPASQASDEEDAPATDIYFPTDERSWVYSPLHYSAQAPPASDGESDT
Chain of UniProt Q99640 (whole entry, looked up): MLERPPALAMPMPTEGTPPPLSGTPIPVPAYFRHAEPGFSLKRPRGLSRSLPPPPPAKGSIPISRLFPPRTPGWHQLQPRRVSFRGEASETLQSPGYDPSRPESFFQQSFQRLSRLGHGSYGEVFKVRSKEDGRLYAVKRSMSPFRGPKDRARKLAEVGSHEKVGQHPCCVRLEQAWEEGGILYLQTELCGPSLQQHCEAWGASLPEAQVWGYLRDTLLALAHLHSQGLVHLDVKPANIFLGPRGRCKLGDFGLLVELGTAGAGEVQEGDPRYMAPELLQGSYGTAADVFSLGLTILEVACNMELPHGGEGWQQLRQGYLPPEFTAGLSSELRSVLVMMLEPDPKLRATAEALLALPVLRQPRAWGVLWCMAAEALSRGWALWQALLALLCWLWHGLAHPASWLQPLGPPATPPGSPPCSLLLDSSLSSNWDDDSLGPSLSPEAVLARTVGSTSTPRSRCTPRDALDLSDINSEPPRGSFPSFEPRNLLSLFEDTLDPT
Chain of UniProt Q8WTQ7 (whole entry, looked up): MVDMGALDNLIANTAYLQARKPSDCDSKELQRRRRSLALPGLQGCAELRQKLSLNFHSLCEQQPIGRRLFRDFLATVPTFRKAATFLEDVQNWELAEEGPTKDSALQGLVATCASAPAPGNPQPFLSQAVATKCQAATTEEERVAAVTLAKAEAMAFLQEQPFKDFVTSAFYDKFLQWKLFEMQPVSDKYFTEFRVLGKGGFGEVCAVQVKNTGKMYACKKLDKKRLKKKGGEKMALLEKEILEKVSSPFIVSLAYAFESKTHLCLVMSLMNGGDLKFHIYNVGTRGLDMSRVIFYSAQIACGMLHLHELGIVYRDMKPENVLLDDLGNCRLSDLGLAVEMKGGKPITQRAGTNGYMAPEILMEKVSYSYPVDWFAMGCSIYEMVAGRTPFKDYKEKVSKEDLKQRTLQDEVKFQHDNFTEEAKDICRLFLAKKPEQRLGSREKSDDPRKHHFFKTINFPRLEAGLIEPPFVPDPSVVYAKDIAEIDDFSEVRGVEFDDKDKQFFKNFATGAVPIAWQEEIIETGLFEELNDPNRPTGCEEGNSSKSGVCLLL
Chain of UniProt Q13164 (whole entry, looked up): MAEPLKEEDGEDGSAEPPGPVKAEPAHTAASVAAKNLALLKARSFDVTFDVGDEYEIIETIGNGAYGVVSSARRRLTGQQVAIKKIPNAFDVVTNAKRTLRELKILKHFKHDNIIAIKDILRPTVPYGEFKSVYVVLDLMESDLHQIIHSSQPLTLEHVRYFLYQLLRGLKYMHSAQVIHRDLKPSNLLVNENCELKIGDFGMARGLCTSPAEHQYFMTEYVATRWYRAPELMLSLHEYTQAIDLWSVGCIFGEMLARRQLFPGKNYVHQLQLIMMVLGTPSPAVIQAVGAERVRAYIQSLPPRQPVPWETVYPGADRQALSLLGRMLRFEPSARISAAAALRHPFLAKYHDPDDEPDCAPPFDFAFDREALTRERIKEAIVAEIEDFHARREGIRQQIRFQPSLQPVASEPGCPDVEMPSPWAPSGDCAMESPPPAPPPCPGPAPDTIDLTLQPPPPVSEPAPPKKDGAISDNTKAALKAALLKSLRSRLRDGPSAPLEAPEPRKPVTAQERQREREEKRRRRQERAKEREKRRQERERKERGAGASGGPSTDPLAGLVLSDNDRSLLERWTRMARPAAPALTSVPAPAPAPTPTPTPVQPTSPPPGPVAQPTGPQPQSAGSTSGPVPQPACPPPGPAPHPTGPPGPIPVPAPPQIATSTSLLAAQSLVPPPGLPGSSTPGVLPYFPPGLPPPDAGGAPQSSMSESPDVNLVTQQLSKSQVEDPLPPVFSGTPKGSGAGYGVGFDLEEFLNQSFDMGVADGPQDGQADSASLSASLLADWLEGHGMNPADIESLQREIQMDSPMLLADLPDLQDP
Chain of UniProt P27448 (whole entry, looked up): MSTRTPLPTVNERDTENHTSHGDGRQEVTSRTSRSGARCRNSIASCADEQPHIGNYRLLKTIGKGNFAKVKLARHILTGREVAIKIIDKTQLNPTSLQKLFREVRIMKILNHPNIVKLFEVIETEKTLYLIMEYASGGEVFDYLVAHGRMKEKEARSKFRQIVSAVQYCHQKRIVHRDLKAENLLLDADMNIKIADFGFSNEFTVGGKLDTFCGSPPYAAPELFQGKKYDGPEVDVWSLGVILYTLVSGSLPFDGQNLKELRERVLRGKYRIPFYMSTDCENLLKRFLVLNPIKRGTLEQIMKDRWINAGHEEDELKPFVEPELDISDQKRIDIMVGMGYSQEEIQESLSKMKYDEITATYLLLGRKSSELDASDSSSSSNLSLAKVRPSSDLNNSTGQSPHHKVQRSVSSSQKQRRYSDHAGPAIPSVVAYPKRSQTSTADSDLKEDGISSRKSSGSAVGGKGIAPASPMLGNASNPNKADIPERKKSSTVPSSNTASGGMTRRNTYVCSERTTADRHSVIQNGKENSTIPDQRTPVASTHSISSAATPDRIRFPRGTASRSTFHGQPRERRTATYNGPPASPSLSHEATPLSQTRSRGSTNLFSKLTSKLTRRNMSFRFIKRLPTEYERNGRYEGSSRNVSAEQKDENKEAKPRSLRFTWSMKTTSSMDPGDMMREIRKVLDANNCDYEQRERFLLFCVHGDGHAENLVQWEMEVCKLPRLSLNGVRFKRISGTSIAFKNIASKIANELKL
Chain of UniProt O15530 (whole entry, looked up): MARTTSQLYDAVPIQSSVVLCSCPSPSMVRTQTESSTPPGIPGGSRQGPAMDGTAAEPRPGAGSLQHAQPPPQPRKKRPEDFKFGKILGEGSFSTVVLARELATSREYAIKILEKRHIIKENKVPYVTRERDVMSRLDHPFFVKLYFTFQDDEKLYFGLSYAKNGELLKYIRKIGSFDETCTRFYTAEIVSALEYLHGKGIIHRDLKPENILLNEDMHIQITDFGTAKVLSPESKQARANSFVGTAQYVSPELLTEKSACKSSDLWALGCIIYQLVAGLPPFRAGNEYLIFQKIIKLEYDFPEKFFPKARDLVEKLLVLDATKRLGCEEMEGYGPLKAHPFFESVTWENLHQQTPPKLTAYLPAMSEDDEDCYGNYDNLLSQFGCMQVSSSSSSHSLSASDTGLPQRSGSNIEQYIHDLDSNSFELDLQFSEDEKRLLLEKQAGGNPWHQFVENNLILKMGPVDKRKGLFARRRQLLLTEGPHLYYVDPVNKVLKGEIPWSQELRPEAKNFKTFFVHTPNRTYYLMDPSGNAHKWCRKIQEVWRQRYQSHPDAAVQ
Chain of UniProt Q9BVS4 (whole entry, looked up): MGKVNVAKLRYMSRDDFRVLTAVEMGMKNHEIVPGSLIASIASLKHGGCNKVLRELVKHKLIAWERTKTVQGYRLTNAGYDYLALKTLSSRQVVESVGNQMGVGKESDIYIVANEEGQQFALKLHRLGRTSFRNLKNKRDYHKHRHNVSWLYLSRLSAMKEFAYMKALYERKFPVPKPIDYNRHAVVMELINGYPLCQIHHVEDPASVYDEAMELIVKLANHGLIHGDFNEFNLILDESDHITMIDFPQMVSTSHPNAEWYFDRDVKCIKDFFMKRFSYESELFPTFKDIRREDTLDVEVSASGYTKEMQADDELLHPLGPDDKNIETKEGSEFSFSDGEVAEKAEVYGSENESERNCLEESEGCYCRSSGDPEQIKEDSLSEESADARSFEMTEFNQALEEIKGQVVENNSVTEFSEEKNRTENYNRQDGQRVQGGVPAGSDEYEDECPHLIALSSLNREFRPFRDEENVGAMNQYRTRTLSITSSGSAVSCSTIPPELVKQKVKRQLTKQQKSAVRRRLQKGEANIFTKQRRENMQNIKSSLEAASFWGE
Chain of UniProt P11802 (whole entry, looked up): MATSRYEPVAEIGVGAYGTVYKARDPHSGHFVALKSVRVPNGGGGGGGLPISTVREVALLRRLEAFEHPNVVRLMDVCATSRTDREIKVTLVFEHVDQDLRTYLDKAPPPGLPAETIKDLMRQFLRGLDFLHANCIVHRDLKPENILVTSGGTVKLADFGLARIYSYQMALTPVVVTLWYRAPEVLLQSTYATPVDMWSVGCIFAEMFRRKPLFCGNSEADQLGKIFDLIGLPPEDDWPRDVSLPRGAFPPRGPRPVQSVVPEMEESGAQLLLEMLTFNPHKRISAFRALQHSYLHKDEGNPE

Series 1
Cell line: mouse MPNST tumor cells
Method: high-content nuclear imaging
Measured: cell number
Tested at: 10 µM
Time: 12 h
Setting: mean of 2 replicates
Reference: plate mean
Reading: higher = more cells
SMILES | nuclei count
O=C(Nc1ccccc1)Nc1ccc(-c2ccc(C(=O)[C@@H]3CCC[C@H]3C(=O)O)cc2)cc1 | 1.98 z-score
CO[C@@]1(NC(=O)Cc2cccs2)C(=O)N2C(C(=O)O)=C(COC(N)=O)CS[C@@H]21 | -0.115 z-score
C/C(=C\C(=O)OCCCCCCCCC(=O)O)C[C@@H]1OC[C@H](C[C@@H]2O[C@H]2[C@@H](C)[C@H](C)O)[C@@H](O)[C@H]1O | 0.774 z-score
Cc1ccccc1OCC(O)CO (stereo not drawn) | 1.08 z-score

Series 2
SMILES: CCOCCn1cc(C(=O)Nc2ccc(-n3nc(-c4cccnc4)cc3C(F)(F)F)cn2)ccc1=O
Read-out: cell-free assay
Method: competition with immobilised ligand
Tested at: 1 µM
target | remaining binding
PIK3CA (Homo sapiens, UniProt P42336) | 92%
TBK1 (Homo sapiens, UniProt Q9UHD2) | 76%
GRK4 (Homo sapiens, UniProt P32298) | 100%
PIK3CG (Homo sapiens, UniProt P48736) | 100%
MAPK14 (Homo sapiens, UniProt Q16539) | 100%
TGFBR2 (Homo sapiens, UniProt P37173) | 100%
PIM3 (Homo sapiens, UniProt Q86V86) | 90%
BTK (Homo sapiens, UniProt Q06187) | 79%
EGFR (Homo sapiens, UniProt P00533) | 100%
MAP3K10 (Homo sapiens, UniProt Q02779) | 100%
Cyclin-dependent kinase 4, with cyclin D1 (CDK4, Homo sapiens, UniProt P11802) | 93%
COQ8B (Homo sapiens, UniProt Q96D53) | 100%
MARK3 (Homo sapiens, UniProt P27448) | 100%
GRK3 (Homo sapiens, UniProt P35626) | 76%
GRK7 (Homo sapiens, UniProt Q8WTQ7) | 88%
PRKAA2 (Homo sapiens, UniProt P54646) | 100%
PDPK1 (Homo sapiens, UniProt O15530) | 87%
TIE1 (Homo sapiens, UniProt P35590) | 81%
MAPK7 (Homo sapiens, UniProt Q13164) | 86%
PRKD1 (Homo sapiens, UniProt Q15139) | 100%
MTOR (Homo sapiens, UniProt P42345) | 100%
MAST1 (Homo sapiens, UniProt Q9Y2H9) | 100%
NEK9 (Homo sapiens, UniProt Q8TD19) | 100%
RIOK2 (Homo sapiens, UniProt Q9BVS4) | 60%
TSSK3 (Homo sapiens, UniProt Q96PN8) | 100%

Series 3
Compound: CCN(CC)CCCCN1c2ccccc2Oc2ccc(Cl)cc21
Read-out: enzyme activity
Action: inhibitor
Method: radiometric
target | IC50 [µM]
PIM3 (Homo sapiens, UniProt Q86V86) | 0.514
AKT2 (Homo sapiens, UniProt P31751) | > 30
PIM2 (Homo sapiens, UniProt Q9P1W9) | > 30

Series 4
Structure (SMILES): CC(C)n1cnc(-c2ccc(F)cc2)c1-c1ncc(C(=O)Nc2ccc(N3CCN(C)CC3)cc2)[nH]1
Method: phase 2a trial
Species: idiopathic pulmonary fibrosis patients
setting | patients with ALT increased [%]
30 mg once daily, adverse event grade 2 | 0
30 mg once daily, adverse event grade 4 | 0
dose not given, grade 1, arms pooled | 5
60 mg once daily, adverse event grade 1 | 4
60 mg once daily, adverse event grade 4 | 0

Series 5
Cell line: HaCaT
Tested at: 100 µM
Time: 36 h
SMILES | viability
Oc1ccc(OCc2ccccc2)cc1 | 48.8%
CNC(=O)c1c(C)oc2cc(Oc3ncnc4cc(OC)c(OC)cc34)ccc12 | 97.2%
COc1nc2ccc(Br)cc2cc1[C@@H](c1ccccc1)[C@@](O)(CCN(C)C)c1cccc2ccccc12 | 81.5%
COc1cc(C(C)=O)ccc1OCCCN1CCC(c2noc3cc(F)ccc23)CC1 | 89.1%
CN[C@@H]1[C@@H](O)[C@@H](O[C@@H]2[C@@H](O)[C@H](O[C@H]3OC(CN)=CC[C@H]3N)[C@@H](N)C[C@H]2N)OC[C@]1(C)O | 89%

Series 6
Structure (SMILES): COc1ccc2[nH]c3c4[nH]c5ccc(OC)cc5c4c4c(c3c2c1)C(=O)NC4=O
Method: competitive binding panel
Tested at: 1 µM
Reference: vehicle
target | remaining binding
ABL1 (Homo sapiens, UniProt P00519, M351T) | 68%
PIP5K1C (Homo sapiens, UniProt O60331) | 81%
PKMYT1 (Homo sapiens, UniProt Q99640) | 97%
CLK2 (Homo sapiens, UniProt P49760) | 56%

Series 7
Species: human
Matrix: microsomes or S9
Tested at: 2 µM
Time: 0.5 h
SMILES | remaining compound [%]
O=C1CC(c2ccsc2)c2ccc3ccccc3c2N1 (stereo not drawn) | 19.6
CC(C)=CCn1c(COc2ccc(Br)cc2Cl)noc1=O | 78.5
Cc1nn(C)cc1-c1c2c(=O)[nH]n(C(C)C)c2nc2[nH]c(=O)n(C)c12 | > 100
COc1cc(Br)c(S(=O)(=O)NC2CCN(S(=O)(=O)c3ccccc3)CC2)cc1OC | 93.6
CC(C)(C)/N=c1\[nH]c(-c2ccccc2O)nc2ccccc12 | 58.5

For quick reference, copied from above (series 5):
SMILES | viability
CNC(=O)c1c(C)oc2cc(Oc3ncnc4cc(OC)c(OC)cc34)ccc12 | 97.2%
COc1nc2ccc(Br)cc2cc1[C@@H](c1ccccc1)[C@@](O)(CCN(C)C)c1cccc2ccccc12 | 81.5%
COc1cc(C(C)=O)ccc1OCCCN1CCC(c2noc3cc(F)ccc23)CC1 | 89.1%
CN[C@@H]1[C@@H](O)[C@@H](O[C@@H]2[C@@H](O)[C@H](O[C@H]3OC(CN)=CC[C@H]3N)[C@@H](N)C[C@H]2N)OC[C@]1(C)O | 89%
